Experimental data from different studies.
Compare with care: the assays were run in different laboratories. “And” joins repeats or separate records; there may be more than shown. ± gives the spread as reported.
GBA2: Beta-glucosidase (GBA2, Homo sapiens, UniProt Q9HCG7)
Chain of UniProt Q9HCG7 (whole entry, looked up): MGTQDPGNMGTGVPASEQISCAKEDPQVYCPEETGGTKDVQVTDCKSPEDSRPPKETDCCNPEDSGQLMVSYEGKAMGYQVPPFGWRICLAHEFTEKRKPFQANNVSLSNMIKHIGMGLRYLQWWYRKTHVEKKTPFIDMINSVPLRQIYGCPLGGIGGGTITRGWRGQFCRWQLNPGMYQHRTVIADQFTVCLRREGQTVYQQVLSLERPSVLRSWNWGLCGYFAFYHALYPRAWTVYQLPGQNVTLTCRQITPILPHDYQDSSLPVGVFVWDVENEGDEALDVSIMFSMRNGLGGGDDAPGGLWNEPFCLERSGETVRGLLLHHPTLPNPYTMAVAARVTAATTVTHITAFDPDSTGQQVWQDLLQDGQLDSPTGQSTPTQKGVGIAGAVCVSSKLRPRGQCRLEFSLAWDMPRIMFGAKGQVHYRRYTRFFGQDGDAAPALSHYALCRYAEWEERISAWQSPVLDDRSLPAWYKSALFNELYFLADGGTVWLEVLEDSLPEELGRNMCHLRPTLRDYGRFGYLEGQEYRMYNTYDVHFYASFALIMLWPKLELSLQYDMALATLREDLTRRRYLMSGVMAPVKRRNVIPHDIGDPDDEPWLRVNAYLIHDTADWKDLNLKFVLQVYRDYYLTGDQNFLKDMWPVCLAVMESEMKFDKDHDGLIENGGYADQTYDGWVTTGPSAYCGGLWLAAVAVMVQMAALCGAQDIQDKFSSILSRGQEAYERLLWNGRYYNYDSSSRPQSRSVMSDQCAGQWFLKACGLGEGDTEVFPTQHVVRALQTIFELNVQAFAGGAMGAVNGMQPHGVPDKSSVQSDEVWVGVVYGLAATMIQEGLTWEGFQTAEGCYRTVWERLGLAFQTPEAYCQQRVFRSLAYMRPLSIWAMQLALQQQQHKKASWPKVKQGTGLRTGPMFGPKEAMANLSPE
Chain of UniProt P10635 (whole entry, looked up): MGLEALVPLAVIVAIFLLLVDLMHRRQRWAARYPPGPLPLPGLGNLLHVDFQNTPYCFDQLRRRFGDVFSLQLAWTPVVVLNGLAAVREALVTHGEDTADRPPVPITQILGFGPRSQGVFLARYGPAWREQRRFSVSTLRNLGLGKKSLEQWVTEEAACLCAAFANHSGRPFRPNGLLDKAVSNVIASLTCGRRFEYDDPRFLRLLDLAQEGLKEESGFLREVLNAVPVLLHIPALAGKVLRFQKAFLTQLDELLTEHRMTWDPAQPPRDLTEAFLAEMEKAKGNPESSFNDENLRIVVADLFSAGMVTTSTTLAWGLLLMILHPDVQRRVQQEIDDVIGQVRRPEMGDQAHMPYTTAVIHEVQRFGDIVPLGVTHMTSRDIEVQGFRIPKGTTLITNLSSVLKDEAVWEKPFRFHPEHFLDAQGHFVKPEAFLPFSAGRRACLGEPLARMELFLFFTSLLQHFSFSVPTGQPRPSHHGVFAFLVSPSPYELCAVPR

SMILES	target or system	test	system	conditions	scale	endpoint	value
C=CC(=O)Nc1cccc(Cn2ncc3cnc(Nc4cnn(CCOC)c4)nc32)c1	TTK human	binding, KINOMEscan		100 nM	lower = stronger binding	percent of control	59%
C=CC(=O)N1[C@@H](c2ccc3c(c2)OCO3)c2[nH]c3ccccc3c2C[C@H]1C(=O)N1CCN(C)CC1	human cyclin E1 N112C-3xFLAG:CDK2	co-IP with TMT proteomics, refers to: SRSF3		concentration not given, P84103	reference: wild type DMSO	relative co-enrichment	140%
CC(C)C[C@H](NC(=O)[C@@H](CCCCNC(=O)[C@@H](Cc1ccccc1)NC(=O)CCCCCNC(=O)CN1CCN(CC(=O)O)CCN(CC(=O)O)CCN(CC(=O)O)CC1)NC(=O)[C@H](Cc1ccc(O)cc1)NC(=O)[C@H](CO)NC(=O)[C@H](Cc1c[nH]c2ccccc12)NC(=O)[C@H](Cc1c[nH]cn1)NC(=O)[C@@H]1CCC(=O)N1)C(=O)N[C@@H](CCCNC(=N)N)C(=O)N1CCC[C@H]1C(=O)NCC(N)=O [indium-111 labelled]			female athymic nude mice, lung	intravenous, 0.037 MBq, 4 h		tissue uptake	0.1 ± 0.04 %ID/g
C=C(NC(=O)c1csc(-c2nc3c(cc2O)-c2nc(cs2)C(=O)NC(C(C)O)C(=O)NC(=C(C)OC)c2nc(cs2)C(=O)NC2c4nc(cs4)C(=O)NC(COC(=O)c4c5c6c(cccc6n4O)COC(=O)C(OC4CC(C)(O)C(N(C)C)C(C)O4)C2OC5)c2nc-3cs2)n1)C(N)=O (stereo not drawn)	Streptococcus pneumoniae		-25, immunocompromised mice, lung infection	bid dosing		lung bacterial load at ED50	5.25 log CFU/g
Cc1ncsc1-c1ccc(C(C)NC(=O)C2CC(O)CN2C(=O)C(NC(=O)CCCCCCCCCCN2CCCC(Nc3ncc(Cl)c(Nc4ccccc4S(=O)(=O)C(C)C)n3)C2)C(C)(C)C)cc1 (stereo not drawn)	22Rv1	RNA-seq, refers to: MAPK7 mRNA		concentration not given	reference: DMSO	log2 fold change	-1.32
CC(C)C[C@H](NC(=O)[C@H](Cc1ccc(O)cc1)NC(=O)[C@@H](CCCNC(=N)N)NC(=O)[C@@H](CO)NC(=O)[C@H](Cc1ccccc1)NC(=O)[C@H](CC1CCCCC1)NC(=O)[C@H](CC(=O)O)NC(=O)CN1CCN(CC(=O)O)CCN(CC(=O)O)CCN(CC(=O)O)CC1)C(=O)N[C@@H](Cc1c[nH]c2ccccc12)C(=O)N[C@@H](CO)C(=O)O [copper-64 labelled]			human, heart	concentration not given, 1 h		activity concentration	3580 Bq/mL and 5730 Bq/mL and 6720 Bq/mL and 4010 Bq/mL and 4070 Bq/mL and 5270 Bq/mL
OC[C@H]1[C@@H](O)[C@H](O)[C@@H](O)CN1CCCCCOCC12CC3CC(C1)CC(COCCCCCN1C[C@H](O)[C@@H](O)[C@H](O)[C@@H]1CO)(C3)C2	GBA2	inhibitor, 4MU-β-D-glucopyranoside	HEK293T homogenates overexpressing GBA2		reference: GCS IC50 over GBA2 IC50	selectivity ratio	769
CNS(=O)(=O)Nc1nccc(Cc2c(C)c3ccc(Oc4ncccc4F)cc3oc2=O)c1F	WSUDLCL2	cell viability		7 days		IC50	> 1 µM
COC1CN([C@H]2CC[C@H]([C@@]3(C)Oc4c(Cl)cc(C(=O)NCc5c(SC)cc(C)[nH]c5=O)c(C)c4O3)CC2)C1		RNA-seq, refers to: CNRIP1 mouse homolog	mouse, HT-1376 xenograft, whole blood	dose not given	reference: vehicle	log2 fold change	1.47
CCCCCN1C[C@H](O)[C@@H](O)[C@H](O)[C@@H]1CO	GBA2	inhibitor, 4MU-β-D-glucopyranoside	HEK293T homogenates overexpressing GBA2		reference: GBA1 IC50 over GBA2 IC50	selectivity ratio	4000
O=C(N/N=C/c1cc[n+](Cc2ccccc2)c2ccccc12)c1cc(C(=O)N/N=C/c2cc[n+](Cc3ccccc3)c3ccccc23)ncn1	myc22 MYC G4-DNA parallel	FRET melting		1 µM, K1 buffer, DNA 0.2 µM		ΔTm	8.3 ± 0.1 °C
COc1cc(O)ccc1CCC(c1ccc(O)cc1)c1cc2c(c(C)c1O)OC(c1ccc(O)cc1)CC2 (mixture of isomers)		refers to: TXB2	human whole blood	3 µM, with: Escherichia coli		amount	30600 ± 15800 pg/mL blood
C[n+]1cc(NC(=O)c2ccc3ccc4ccc(C(=O)Nc5cc6ccccc6[n+](C)c5)nc4c3n2)cc2ccccc21	G-quadruplex DNA 22CTA antiparallel	UV melting		6 µM, K10 buffer, with: DNA 3 µM		delta Tm	> 40 °C
CNC(=O)C1CCCN(C(=O)C2CC3CCC2N3C(=O)[C@@H]2C[C@@H](O)CN2C(=O)NCc2cccc(Cl)c2F)C1 (mixture of isomers)	Cytochrome P450 2D6 (CYP2D6, Homo sapiens, UniProt P10635)	enzyme activity, inhibitor	human, liver microsomes			IC50	> 50 µM
C[n+]1ccc(/C=N/NC(=O)C(=O)N/N=C/c2cc[n+](C)c3ccccc23)c2ccccc21	myc22 MYC G4-DNA parallel	FRET melting		1 µM, K1 buffer, DNA 0.2 µM, with: ds26 10 µM		ΔTm	4.8 ± 0.5 °C
CN1CCCNC(=O)c2cccc(c2)C(=O)NCCCN(C)CCCNc2cccc3c2C(=O)c2cccc(c2C3=O)NCCC1	SAS	RNA-Seq, refers to: TDP2 mRNA		1 µM, 6 h	reference: untreated cells	log2 fold change	-1.27
O=C(N/N=C/c1cc[n+](CC2CC2)c2ccccc12)c1cccc(C(=O)N/N=C/c2cc[n+](CC3CC3)c3ccccc23)c1	myc22 MYC G4-DNA parallel	FRET melting		1 µM, K1 buffer, DNA 0.2 µM		ΔTm	12.7 ± 0.3 °C
Nc1ncc(-c2cc(-c3cnn(CC(F)(F)F)c3)ncc2F)nc1C(=O)NC1CNCC(F)C1 (stereo not drawn)	TIE2	KINOMEscan competition binding		1 µM	reference: DMSO control	remaining binding	86%

For quick reference, copied from above:
SMILES	target or system	test	system	conditions	scale	endpoint	value
C=C(NC(=O)c1csc(-c2nc3c(cc2O)-c2nc(cs2)C(=O)NC(C(C)O)C(=O)NC(=C(C)OC)c2nc(cs2)C(=O)NC2c4nc(cs4)C(=O)NC(COC(=O)c4c5c6c(cccc6n4O)COC(=O)C(OC4CC(C)(O)C(N(C)C)C(C)O4)C2OC5)c2nc-3cs2)n1)C(N)=O (stereo not drawn)	Streptococcus pneumoniae		-25, immunocompromised mice, lung infection	bid dosing		lung bacterial load at ED50	5.25 log CFU/g
Cc1ncsc1-c1ccc(C(C)NC(=O)C2CC(O)CN2C(=O)C(NC(=O)CCCCCCCCCCN2CCCC(Nc3ncc(Cl)c(Nc4ccccc4S(=O)(=O)C(C)C)n3)C2)C(C)(C)C)cc1 (stereo not drawn)	22Rv1	RNA-seq, refers to: MAPK7 mRNA		concentration not given	reference: DMSO	log2 fold change	-1.32
